Experimental data collected from several papers.
Each line is one published result; not all experiments were run side by side. ± gives the spread as reported. Converted amounts (≈) assume the structure as drawn.

CN(C(=O)c1ccn2ncc(-c3ccc(C(N)=O)cc3)c2c1)c1ccc(C#N)cn1
hepatocyte CLint (metabolic stability; dog, hepatocytes): 0.6 µL/min/10⁶ cells

C/C=C/C[C@@H](C)C(=O)[C@H]1C(=O)N[C@@H](C(C)C)C(=O)N(C)CC(=O)N(C)[C@@H](CC(C)C)C(=O)N[C@@H](C(C)C)C(=O)N(C)[C@@H](CC(C)C)C(=O)N[C@@H](C)C(=O)N[C@H](C)C(=O)N(C)[C@@H](CC(C)C)C(=O)N(C)[C@@H](CC(C)C)C(=O)N(C)[C@@H](C(C)C)C(=O)N1C
free steady-state plasma concentration (Sprague Dawley rat, plasma; multiple intravenous bolus, dose not given, 4 h, minimal efficacious dose): 411 nM

CC(C)NC[C@@H](C(=O)N1CCN(c2ncnc3c2[C@H](C)C[C@H]3O)CC1)c1ccc(Cl)cc1
AUC(0-∞) (human, normal hepatic function, plasma; oral, 100 mg single dose, reference group versus Severe; baseline: NCI classification): 353 ng·h/mL

CN(C)C(=O)c1cc2cnc(Nc3ccc(N4CCNCC4)cn3)nc2n1C1CCCC1
QT prolongation all grades (patients Rb+ solid tumours; oral, dose not given, all doses treatment-related): 11%

CS(=O)(=O)OC[C@H](O)[C@@H]1CO1
RBC/plasma partition coefficient (rat, Wistar, both sexes, red blood cells and plasma; intraperitoneal, 500 mg/kg treosulfan, 1 and 4 h): 0.6

CCCC[C@H](NC(C)=O)C(=O)N[C@H]1CCC(=O)NC[C@@H](C(=O)N[C@@H](Cc2c[nH]c3ccccc23)C(N)=O)NC(=O)[C@H](CCCNC(=N)N)NC(=O)[C@@H](Cc2ccccc2)NC(=O)[C@H](Cc2c[nH]cn2)NC1=O
half-life (female rat, plasma; subcutaneous, 1 mg/kg/day, multiple doses, once daily): 0.624 h

CC(=O)N[C@H](CSSC[C@H](N)C(=O)O)C(=O)N[C@H](C)C(=O)N[C@H](CCCNC(=N)N)C(=O)N[C@H](CCCNC(=N)N)C(=O)N[C@H](CCCNC(=N)N)C(=O)N[C@H](C)C(=O)N[C@H](CCCNC(=N)N)C(N)=O
disulfide exchange rate constant (human whole blood; 37 °C, to biotransformed products): 0.00525 min⁻¹

C=CC(=C)CCC1(C)C(C)CC(O)C23C(=CC(OC(=O)C(C)CC)CC12)C(OC(C)=O)OC3OC(C)=O (stereo not drawn)
haemolysis (haemolysis; 500 µM): 27.1%

O=C(O)/C=C/c1ccc(O)c(O)c1
MRT(0-t) (UPLC-MS/MS; Wistar rat, microcirculation dysfunction model, plasma; oral, 100 mg/kg Salvia miltiorrhiza stem-leaf extract FT): 8.58 ± 1.97 h

CS/C(S)=N/CCCC[S+](C)[O-] (racemic)
mRNA fold change (RT-PCR, item: Cyp2c7; rat, mammary gland; oral gavage, 200 mg/kg, dosed for four days; baseline: vehicle): 0.045

Cn1c(-c2ccc(C(N)=O)cc2F)nnc1C(C)(C)Oc1c(F)cc(Cl)cc1F
half-life mean (young Japanese adults, plasma; oral, 10 mg single dose, day 1, high-dose multiple-dose study): 18.9 h

CCN(CC)Cc1cc(Nc2ccnc3cc(Cl)ccc23)ccc1O
Vd/F (Wistar rat, male, plasma; oral, 60 mg/kg): 49.6 ± 11 L/kg

C=CC(N)CCC(=O)O (stereo not drawn)
AUC(0-inf) (male Sprague-Dawley rat, plasma; oral, 1.0 mg/kg, formulation 3, added: low-fat infant formula 1500 mg/kg): 1780 ± 37 ng·h/mL

NCCCC[C@H](N)C(=O)O
Π (relative logD) (octanol/phosphate buffer; pH 7.0, N-4-nitrobenzoyl amino acid derivatives; baseline: glycine derivative): -2.44 ± 0.02

Cc1c2c(n(-c3ccc(Cl)cc3Cl)c1-c1ccc(OS(=O)(=O)CCC(F)(F)F)cc1)CCN(N1CCCCC1)C2=O
plasma concentration (cynomolgus monkey 1, plasma; intravenous infusion, 0.2 mg/kg, 90 min, PET study midpoint): 50 nM

CCCOc1ccc([C@H]2CNC(=O)N2c2ccc3[nH]cnc3c2)cc1
AUC(0-12h) (human volunteers fasted, plasma; oral solution, 30 mg single dose, day 1, geometric mean): 171 ng·h/mL

CC#CCn1c(N2CCC[C@@H](N)C2)nc2c1c(=O)n(Cc1nc(C)c3ccccc3n1)c(=O)n2C
AUC (male ICR mouse, plasma; oral, 3 mg/kg, 24 h): 2430 ng·h/mL

C[C@](N)(Cc1ccc(O)c(O)c1)C(=O)O
solubility (supercritical carbon dioxide; 5 h, 343 K, 12 MPa, density 346.1 kg/m3): 13.4 µg/mL (≈ 63.4 µM)

CCC(CC)COC(=O)[C@H](C)N[P@](=O)(OC[C@H]1O[C@@](C#N)(c2ccc3c(N)ncnn23)[C@H](O)[C@@H]1O)Oc1ccccc1
equilibrium solubility (20% w/w aqueous SBECD; 24 h, pH 1.9, 25 °C, SBECD source 2): 7910 µg/mL

CCCCC(=O)N(Cc1ccc(-c2ccccc2-c2nnn[nH]2)cc1)[C@H](C(=O)O)C(C)C
AUCtau at steady state (male human, plasma; oral, dose not given, day 8, adjusted geometric mean, added: sildenafil): 21700 ng·h/mL

CC1(C)C2CC[C@]1(C)C(=O)/C2=C/c1ccsc1
maximum hemolysis (human red blood cells; 10 to 300 µg/mL, 30 min): < 14%

C=CC(=O)Nc1cc(Nc2ncc(C(=O)OC(C)C)c(-c3cn(C)c4ccccc34)n2)c(OC)cc1N(C)CCN(C)C
AUC(0-t) (human, fasted; oral, 120 mg single dose, geometric mean): 448 ng·h/mL

CNC(=O)c1cccc2cc(Oc3ccnc4cc(OCC5(N)CC5)c(OC)cc34)ccc12
Vss/F (human; oral, 10 mg, cycle 1 day 15, multiple dose, intermittent arm): 55.8 ± 17.9 L

O=C1Nc2ccccc2CCCc2ccccc21
kinetic solubility (nephelometry; aqueous buffer; 30 min, pH 6.5): > 25 µg/mL

CCCCCCCCCCCCCNCC(=O)N(CC(=O)N(CCCCN)CC(=O)N(CCN)CC(=O)N(CC(N)=O)[C@@H](C)c1ccccc1)[C@@H](C)c1ccccc1
acetonitrile at elution (preparative RP-HPLC C18; water to acetonitrile gradient; 0.05% TFA in eluent; higher = more hydrophobic): 66.7%

O=C(O)C[C@H](O)C[C@H](O)/C=C/c1c(C2CC2)nc2ccccc2c1-c1ccc(F)cc1
MRT(0-t) (male Sprague-Dawley rat (wild type); oral, 5 mg/kg): 3.01 ± 0.84 h

CC(C)[C@H](NC(=O)[C@@H]1CCCN1C(=O)[C@H](CCCNC(=N)N)NC(=O)[C@H](CS)NC(=O)[C@H](Cc1c[nH]c2ccccc12)NC(=O)[C@H](CCCNC(=N)N)NC(=O)[C@@H](Cc1ccccc1)NC(=O)[C@H](Cc1c[nH]cn1)NC(=O)[C@H](CCC(=O)O)NC(=O)[C@H](CS)NC(=O)[C@H](CS)NC(=O)[C@H](CCCCN)NC(=O)[C@@H]1CC(=O)N[C@@H](CCCNC(=N)N)C(=O)N[C@@H](C(C)C)C(=O)N[C@@H](CC(=O)O)C(=O)N[C@H](Cc2ccc(O)cc2)C(=O)N1)C(N)=O [technetium-99m labelled]
urinary excretion (female C57 mouse, B16/F1 melanoma, urine; intravenous, dose not given, 2 h, added: NDP-MSH 10 µg co-injected): 76.1 ± 3.55%

CCCS(=O)(=O)Nc1ccc(F)c(C(=O)c2c[nH]c3ncc(-c4ccc(Cl)cc4)cc23)c1F
unbound fraction (rapid equilibrium dialysis; 100% human plasma; 150 µM, 4 h): 8.7e-06 ± 1.5e-06

C[C@]12CC[C@@H]3c4ccc(O)cc4CC[C@H]3[C@@H]1C[C@@H](O)[C@@H]2O
minimum serum concentration (GC-MS; breast cancer women on NSAI, serum; vaginal, 0.03 mg, 1 h, day 0): 0 ng/mL

Cn1ncnc1[C@H]1c2n[nH]c(=O)c3cc(F)cc(c23)N[C@@H]1c1ccc(F)cc1
freeze-thaw stability deviation (mouse plasma; 1.5 ng/mL, three freeze-thaw cycles): -3.18%

Cc1nc2cccc(OCC(C)(C)C(=O)NC(C)C)c2c(N)c1C(=O)O
excreted dose (Sprague-Dawley rat, female, urine and feces; oral, 10 mg/kg, 72 h): 91.4%

CC(C)=CCC[C@](C)(O[C@@H]1O[C@H](CO)[C@@H](O)[C@H](O)[C@H]1O)[C@H]1CC[C@]2(C)[C@@H]1[C@H](O)C[C@@H]1[C@@]3(C)CC[C@H](O[C@@H]4O[C@H](CO)[C@@H](O)[C@H](O)[C@H]4O[C@@H]4O[C@H](CO)[C@@H](O)[C@H](O)[C@H]4O)C(C)(C)[C@@H]3CC[C@]12C
AUC(0-inf) (Sprague Dawley rat, male, plasma; oral, 42 mg/kg, in red ginseng extract): 20300 ± 4700 ng·h/mL

CCc1oc2ccc(OC)cc2c1C(=O)c1cc(Br)c(O)c(Br)c1
intrinsic clearance (Sprague-Dawley rat, intestine microsomes; 1 µM, pH 7.4, added: NADPH): 6.5 ± 1.4 µL/min/mg

O=C1N=C(N2CCOCC2)CN1c1ccc(Cl)cc1
AUC(0-inf) (beagle dog, both sexes, plasma; oral, 30 mg/kg, tablets, fed, day 5): 54000 ng·h/mL

CS(=O)(=O)n1cc2c(n1)CN([C@H]1CO[C@H](c3cc(F)ccc3F)[C@@H](N)C1)C2
concentration at 168 h (healthy male human, plasma; oral, 5 mg single, fasted, geometric mean): 6.75 nM

CN[C@@H]1[C@H](O)[C@H](NC)[C@H]2O[C@]3(O)[C@H](O[C@@H]2[C@H]1O)O[C@H](C)C[C@H]3NC(=O)Cc1cc(Cl)c(C)cn1
parent remaining (glutathione conjugation; human liver S9; 100 µM, 2 h, pH 7.4, added: glutathione 0.2 mM): 93.5%

For quick reference, copied from above:
CC(C)=CCC[C@](C)(O[C@@H]1O[C@H](CO)[C@@H](O)[C@H](O)[C@H]1O)[C@H]1CC[C@]2(C)[C@@H]1[C@H](O)C[C@@H]1[C@@]3(C)CC[C@H](O[C@@H]4O[C@H](CO)[C@@H](O)[C@H](O)[C@H]4O[C@@H]4O[C@H](CO)[C@@H](O)[C@H](O)[C@H]4O)C(C)(C)[C@@H]3CC[C@]12C
AUC(0-inf) (Sprague Dawley rat, male, plasma; oral, 42 mg/kg, in red ginseng extract): 20300 ± 4700 ng·h/mL

CCc1oc2ccc(OC)cc2c1C(=O)c1cc(Br)c(O)c(Br)c1
intrinsic clearance (Sprague-Dawley rat, intestine microsomes; 1 µM, pH 7.4, added: NADPH): 6.5 ± 1.4 µL/min/mg

O=C1N=C(N2CCOCC2)CN1c1ccc(Cl)cc1
AUC(0-inf) (beagle dog, both sexes, plasma; oral, 30 mg/kg, tablets, fed, day 5): 54000 ng·h/mL

CS(=O)(=O)n1cc2c(n1)CN([C@H]1CO[C@H](c3cc(F)ccc3F)[C@@H](N)C1)C2
concentration at 168 h (healthy male human, plasma; oral, 5 mg single, fasted, geometric mean): 6.75 nM
